Published values of several laboratories.
Each line is one published result; not all experiments were run side by side.
Cell line: HEK293

SMILES = CC(C)Cc1ccc(C(C)C(=O)N/N=C/c2ccc(OCC(=O)N/N=C/c3cccc(O)c3)cc2)cc1 (stereo not drawn); technique = MTT; tested at = 80 µM; time = 48 h; viability = 49.6%
SMILES = CCOC(=O)c1cc2cc(C(=O)N3CCN(CCOc4ccccc4)CC3)ccc2[nH]1; technique = MTT; tested at = concentration not given; time = 18 h; notes = all tested concentrations; viability = not toxic
SMILES = CC1(C)CC(=O)C2=C(C1)OC(N)=C(C#N)C2c1ccccc1 (stereo not drawn); technique = MTT; tested at = MCF7 IC50; time = 24 h; viability = 77.6%
SMILES = N=C(N)NCCC[C@@H]1NC(=O)[C@H](CCCCN)NC(=O)[C@@H](Cc2ccc(O)cc2)NC(=O)[C@H](CC(=O)O)NC(=O)CNC1=O; technique = CCK-8; tested at = 250 µM; time = 24 h; viability = no effect
SMILES = CC1(C)CC(=O)C2=C(C1)OC(N)=C(C#N)C2c1ccccc1F (stereo not drawn); technique = MTT; tested at = MCF7 IC50; time = 24 h; viability = 89.6%
SMILES = CC(C)Cc1ccc(C(C)C(=O)NN=Cc2ccc(OCC(=O)NN=Cc3cccc([N+](=O)[O-])c3)cc2)cc1 (stereo not drawn); technique = MTT; tested at = 100 µM; time = 48 h; viability = 94.3%
SMILES = NCC1OC(OC2C(N)CC(N)C(OC3OC(CO)C(O)C(N)C3O)C2OCCCCCCCCCCCCn2cc(CNc3nc(NCc4cn(CCCCCCCCCCCCOC5C(OC6OC(CN)C(O)CC6N)C(N)CC(N)C5OC5OC(CO)C(O)C(N)C5O)nn4)nc(NCc4cn(CCCCCCCCCCCCOC5C(OC6OC(CN)C(O)CC6N)C(N)CC(N)C5OC5OC(CO)C(O)C(N)C5O)nn4)n3)nn2)C(N)CC1O (stereo not drawn); technique = PrestoBlue; tested at = 2 µM; time = 48 h; baseline = untreated; viability = 70%
SMILES = COc1cccc(/C=N/NC(=O)COc2ccc(/C=N/NC(=O)C(C)c3ccc(CC(C)C)cc3)cc2)c1O (stereo not drawn); technique = MTT; tested at = 150 µM; time = 48 h; viability = 39.4%
SMILES = NC[C@H]1O[C@H](O[C@H]2[C@H](OCCCCCCCCCCCCn3cc(CNc4nc(NCc5cn(CCCCCCCCCCCCO[C@@H]6[C@@H](O)[C@H](N)C[C@H](N)[C@H]6O[C@H]6O[C@H](CN)[C@@H](O)C[C@H]6N)nn5)nc(NCc5cn(CCCCCCCCCCCCO[C@@H]6[C@@H](O)[C@H](N)C[C@H](N)[C@H]6O[C@H]6O[C@H](CN)[C@@H](O)C[C@H]6N)nn5)n4)nn3)[C@@H](O)[C@H](N)C[C@@H]2N)[C@H](N)C[C@@H]1O; technique = PrestoBlue; tested at = 2 µM; time = 48 h; baseline = untreated; viability = 100%

For quick reference, copied from above:
SMILES = N=C(N)NCCC[C@@H]1NC(=O)[C@H](CCCCN)NC(=O)[C@@H](Cc2ccc(O)cc2)NC(=O)[C@H](CC(=O)O)NC(=O)CNC1=O; technique = CCK-8; tested at = 250 µM; time = 24 h; viability = no effect
